Measured values pooled from the literature.
Protocols differ between the studies behind these lines.

Compound | assay | test system | setting | quantity | value
O=C1CCc2ccc(OCCCCN3CCN(c4cccc(Cl)c4Cl)CC3)cc2N1 | item: Constipation | genotyped patients, CYP2D6 poor metabolizers | dose not given, long-acting oral or depot | adverse event incidence | 11%
Cc1ccc(Sc2ccccc2N2CCNCC2)c(C)c1 | TEAE dysphoria | healthy adult men | oral, 10 mg single dose, 8 nights, fasted | adverse event incidence | 5.3%
Cc1c(C(=O)O)ccc2c3n(nc12)[C@@H]1[C@H](C3)N(CC2CC2)[C@@]2(C(=O)Nc3cc(Cl)ccc32)[C@H]1c1cccc(Cl)c1F | phase Ia trial, item: Anemia | cancer patients | oral, dose not given, all patients grade ≥3 | adverse event incidence | 18.5%
CC(=O)O[C@H]1C(=O)[C@@]2(C)[C@H]([C@H](OC(=O)c3ccccc3)[C@]3(O)C[C@H](OC(=O)[C@H](O)[C@@H](NC(=O)c4ccccc4)c4ccccc4)C(C)=C1C3(C)C)[C@]1(OC(C)=O)CO[C@@H]1C[C@@H]2O | item: alanine aminotransferase increased | patients with advanced solid tumours | intravenous, dose not given, grade 1 and 2, possibly related to drug | adverse event incidence | 17%
NCCONC(=O)[C@@H]1CC[C@@H]2CN1C(=O)N2OS(=O)(=O)O | item: increased bile acids | healthy Chinese men | intravenous, 1 g, treatment-emergent | adverse event incidence | 12.5%
CNC(=O)c1ccc(-c2cnc3ncc(Cc4ccc5ncccc5c4)n3n2)cc1F | phase 1 clinical trial, item: blood alkaline phosphatase increased | dose escalation cohort | oral, dose not given, grade 3 or 4 | adverse event incidence | 5%
Cc1c(Cl)c(C)[n+]([O-])c(Cl)c1-c1noc(-c2cc(O)c(O)c([N+](=O)[O-])c2)n1 | item: Presyncope | healthy Chinese subjects | oral, 50 mg, 20 days | adverse drug reaction incidence | 0%
Cc1cc(Nc2ccc(S(F)(F)(F)(F)F)cc2)n2nc(C(C)(F)F)nc2n1 |  | Plasmodium vivax malaria patients | oral, 400 mg | adverse event Pyrexia | 80%

Excerpt of the above:
Compound | assay | test system | setting | quantity | value
CNC(=O)c1ccc(-c2cnc3ncc(Cc4ccc5ncccc5c4)n3n2)cc1F | phase 1 clinical trial, item: blood alkaline phosphatase increased | dose escalation cohort | oral, dose not given, grade 3 or 4 | adverse event incidence | 5%
